Measurements pooled from the literature.
Protocols differ between the studies behind these lines.
Cell line: SW480
Read-out: cell growth or viability

Structure (SMILES)	technique	time	IC50
COc1cc2c(cc1O)[C@]1(O)C(=O)c3c(O)cc4c(c3O[C@@H]1CO2)C=CC(C)(C)O4	MTT	–	60.8 µM
COc1c(O)cc2oc3c(Br)c(O)c(CCC(C)C)c(O)c3c(=O)c2c1CCC(C)C	–	48 h	17.3 µM
COC(=O)CCC(=O)[O][Pt-2]1([OH])([Cl])([Cl])[NH2+]CC[N+]1(C)C	MTT	96 h	8.4 µM
Cc1ccc(C(C)C)cc1.Oc1ccccc1C=NNC1=Nc2ccccc2-c2[nH]c3ccc(Br)cc3c2C1.[Cl-].[Cl][Ru+]	MTT	96 h	0.64 µM
CC(C)=CCc1c2c(c(O)c3c(=O)c(-c4ccc(O)cc4)coc13)CC(C(C)(C)O)O2 (stereo not drawn)	MTT	–	39.1 µM
COc1c(OC(C)=O)cc2oc3cc(OC(C)=O)c(CC=C(C)C)c(O)c3c(=O)c2c1CC=C(C)C	–	48 h	16.2 µM
C[N+]1(C)CC[NH2+][Pt-2]1([OH])([OH])([Cl])[Cl]	MTT	96 h	115 µM
COc1c(O)cc2oc3cc4c(c(O)c3c(=O)c2c1CCC(C)C)CC(O)O4 (stereo not drawn)	–	48 h	15.9 µM
C[O][Pt-2]1([Cl])([Cl])([O]C(=O)CCC(=O)OCCOC(=O)CCC(=O)[O][Pt-2]2([Cl])([Cl])([O]C)[NH2+]CC[N+]2(C)C)[NH2+]CC[N+]1(C)C	MTT	96 h	19 µM
COc1c(O)c(Br)c2oc3c(Br)c(O)c(CCC(C)C)c(O)c3c(=O)c2c1CCC(C)C	–	48 h	21.3 µM
Cc1ccc(C(C)C)cc1.Cc1ncc(CO)c(C=NNC2=Nc3ccccc3-c3[nH]c4ccc(Br)cc4c3C2)c1O.[Cl-].[Cl][Ru+]	MTT	96 h	1.8 µM
C[O][Pt-2]1([Cl])([Cl])([O]C(=O)CCC(=O)OCCO)[NH2+]CC[N+]1(C)C	MTT	96 h	9.4 µM
CC(C)=CCc1cc(-c2coc3cc(O)c(CC=C(C)C)c(O)c3c2=O)ccc1O	MTT	–	116 µM
C[N+]1(C)CC[NH2+][Pt-2]1([OH])([Cl])([Cl])[O]C(=O)CCC(=O)OCCOC(=O)CCC(=O)[O][Pt-2]1([OH])([Cl])([Cl])[NH2+]CC[N+]1(C)C	MTT	96 h	84 µM
COc1cc(/C=C/C(=O)NCCCCCCNC2=C3C[C@@H](C)C[C@H](OC)[C@H](O)[C@@H](C)/C=C(\C)[C@H](OC(N)=O)[C@@H](OC)/C=C\C=C(/C)C(=O)NC(=CC2=O)C3=O)ccc1O	MTT	72 h	0.873 µM

Repeated from above:
Structure (SMILES)	technique	time	IC50
C[O][Pt-2]1([Cl])([Cl])([O]C(=O)CCC(=O)OCCOC(=O)CCC(=O)[O][Pt-2]2([Cl])([Cl])([O]C)[NH2+]CC[N+]2(C)C)[NH2+]CC[N+]1(C)C	MTT	96 h	19 µM
